# Results pooled from the literature.
# Every numbered part comes from another study and shows a few of its results, in no order. Values joined by “and” are separate records of one study, mostly repeats; a detail may differ.
# Sequence of UniProt P53355 (whole entry, looked up): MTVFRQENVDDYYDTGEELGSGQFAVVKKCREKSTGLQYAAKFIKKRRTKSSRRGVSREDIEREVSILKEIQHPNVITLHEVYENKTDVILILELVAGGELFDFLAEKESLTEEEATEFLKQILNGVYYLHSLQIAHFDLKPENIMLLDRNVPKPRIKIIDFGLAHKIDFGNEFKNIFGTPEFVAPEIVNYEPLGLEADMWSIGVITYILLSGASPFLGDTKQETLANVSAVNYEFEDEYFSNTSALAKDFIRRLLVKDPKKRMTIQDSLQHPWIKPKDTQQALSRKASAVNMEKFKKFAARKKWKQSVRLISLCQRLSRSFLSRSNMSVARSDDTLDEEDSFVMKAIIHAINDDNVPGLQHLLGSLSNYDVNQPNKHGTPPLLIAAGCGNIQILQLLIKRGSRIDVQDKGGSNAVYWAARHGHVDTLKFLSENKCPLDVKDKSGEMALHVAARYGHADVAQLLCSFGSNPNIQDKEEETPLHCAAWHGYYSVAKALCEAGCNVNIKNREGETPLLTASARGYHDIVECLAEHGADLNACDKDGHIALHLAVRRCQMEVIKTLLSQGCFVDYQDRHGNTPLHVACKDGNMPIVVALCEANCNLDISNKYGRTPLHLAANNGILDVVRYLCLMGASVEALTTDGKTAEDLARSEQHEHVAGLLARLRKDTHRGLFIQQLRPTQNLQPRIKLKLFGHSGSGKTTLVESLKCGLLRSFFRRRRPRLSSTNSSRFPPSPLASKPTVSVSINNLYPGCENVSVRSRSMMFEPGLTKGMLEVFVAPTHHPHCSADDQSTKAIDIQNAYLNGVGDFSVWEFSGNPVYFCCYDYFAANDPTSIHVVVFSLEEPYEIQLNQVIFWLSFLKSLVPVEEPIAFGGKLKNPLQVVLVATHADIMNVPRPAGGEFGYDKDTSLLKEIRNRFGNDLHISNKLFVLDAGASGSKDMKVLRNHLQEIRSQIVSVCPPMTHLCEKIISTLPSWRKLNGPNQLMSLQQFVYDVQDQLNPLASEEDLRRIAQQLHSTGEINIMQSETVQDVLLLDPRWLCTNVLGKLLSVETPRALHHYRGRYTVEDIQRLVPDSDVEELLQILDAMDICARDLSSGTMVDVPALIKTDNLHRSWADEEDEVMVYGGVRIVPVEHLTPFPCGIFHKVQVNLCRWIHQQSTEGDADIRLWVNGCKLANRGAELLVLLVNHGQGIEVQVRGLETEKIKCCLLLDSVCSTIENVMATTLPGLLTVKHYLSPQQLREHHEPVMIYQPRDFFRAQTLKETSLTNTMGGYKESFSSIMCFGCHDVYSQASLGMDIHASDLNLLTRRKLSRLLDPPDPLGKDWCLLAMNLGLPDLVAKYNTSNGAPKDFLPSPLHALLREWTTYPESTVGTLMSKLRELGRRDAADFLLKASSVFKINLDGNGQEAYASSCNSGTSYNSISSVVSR
# Sequence of UniProt O94768 (whole entry, looked up): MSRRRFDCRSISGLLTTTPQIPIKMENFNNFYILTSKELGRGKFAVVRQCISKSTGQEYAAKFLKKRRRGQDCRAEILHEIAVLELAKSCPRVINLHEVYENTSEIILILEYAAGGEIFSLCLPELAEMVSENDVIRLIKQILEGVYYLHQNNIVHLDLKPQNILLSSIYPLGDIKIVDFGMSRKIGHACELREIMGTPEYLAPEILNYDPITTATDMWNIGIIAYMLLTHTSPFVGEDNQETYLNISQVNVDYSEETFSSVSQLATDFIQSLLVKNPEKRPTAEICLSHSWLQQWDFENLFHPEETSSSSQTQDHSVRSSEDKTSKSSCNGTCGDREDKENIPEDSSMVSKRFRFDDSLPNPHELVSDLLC
# Sequence of UniProt Q5S007 (whole entry, unmodified, looked up): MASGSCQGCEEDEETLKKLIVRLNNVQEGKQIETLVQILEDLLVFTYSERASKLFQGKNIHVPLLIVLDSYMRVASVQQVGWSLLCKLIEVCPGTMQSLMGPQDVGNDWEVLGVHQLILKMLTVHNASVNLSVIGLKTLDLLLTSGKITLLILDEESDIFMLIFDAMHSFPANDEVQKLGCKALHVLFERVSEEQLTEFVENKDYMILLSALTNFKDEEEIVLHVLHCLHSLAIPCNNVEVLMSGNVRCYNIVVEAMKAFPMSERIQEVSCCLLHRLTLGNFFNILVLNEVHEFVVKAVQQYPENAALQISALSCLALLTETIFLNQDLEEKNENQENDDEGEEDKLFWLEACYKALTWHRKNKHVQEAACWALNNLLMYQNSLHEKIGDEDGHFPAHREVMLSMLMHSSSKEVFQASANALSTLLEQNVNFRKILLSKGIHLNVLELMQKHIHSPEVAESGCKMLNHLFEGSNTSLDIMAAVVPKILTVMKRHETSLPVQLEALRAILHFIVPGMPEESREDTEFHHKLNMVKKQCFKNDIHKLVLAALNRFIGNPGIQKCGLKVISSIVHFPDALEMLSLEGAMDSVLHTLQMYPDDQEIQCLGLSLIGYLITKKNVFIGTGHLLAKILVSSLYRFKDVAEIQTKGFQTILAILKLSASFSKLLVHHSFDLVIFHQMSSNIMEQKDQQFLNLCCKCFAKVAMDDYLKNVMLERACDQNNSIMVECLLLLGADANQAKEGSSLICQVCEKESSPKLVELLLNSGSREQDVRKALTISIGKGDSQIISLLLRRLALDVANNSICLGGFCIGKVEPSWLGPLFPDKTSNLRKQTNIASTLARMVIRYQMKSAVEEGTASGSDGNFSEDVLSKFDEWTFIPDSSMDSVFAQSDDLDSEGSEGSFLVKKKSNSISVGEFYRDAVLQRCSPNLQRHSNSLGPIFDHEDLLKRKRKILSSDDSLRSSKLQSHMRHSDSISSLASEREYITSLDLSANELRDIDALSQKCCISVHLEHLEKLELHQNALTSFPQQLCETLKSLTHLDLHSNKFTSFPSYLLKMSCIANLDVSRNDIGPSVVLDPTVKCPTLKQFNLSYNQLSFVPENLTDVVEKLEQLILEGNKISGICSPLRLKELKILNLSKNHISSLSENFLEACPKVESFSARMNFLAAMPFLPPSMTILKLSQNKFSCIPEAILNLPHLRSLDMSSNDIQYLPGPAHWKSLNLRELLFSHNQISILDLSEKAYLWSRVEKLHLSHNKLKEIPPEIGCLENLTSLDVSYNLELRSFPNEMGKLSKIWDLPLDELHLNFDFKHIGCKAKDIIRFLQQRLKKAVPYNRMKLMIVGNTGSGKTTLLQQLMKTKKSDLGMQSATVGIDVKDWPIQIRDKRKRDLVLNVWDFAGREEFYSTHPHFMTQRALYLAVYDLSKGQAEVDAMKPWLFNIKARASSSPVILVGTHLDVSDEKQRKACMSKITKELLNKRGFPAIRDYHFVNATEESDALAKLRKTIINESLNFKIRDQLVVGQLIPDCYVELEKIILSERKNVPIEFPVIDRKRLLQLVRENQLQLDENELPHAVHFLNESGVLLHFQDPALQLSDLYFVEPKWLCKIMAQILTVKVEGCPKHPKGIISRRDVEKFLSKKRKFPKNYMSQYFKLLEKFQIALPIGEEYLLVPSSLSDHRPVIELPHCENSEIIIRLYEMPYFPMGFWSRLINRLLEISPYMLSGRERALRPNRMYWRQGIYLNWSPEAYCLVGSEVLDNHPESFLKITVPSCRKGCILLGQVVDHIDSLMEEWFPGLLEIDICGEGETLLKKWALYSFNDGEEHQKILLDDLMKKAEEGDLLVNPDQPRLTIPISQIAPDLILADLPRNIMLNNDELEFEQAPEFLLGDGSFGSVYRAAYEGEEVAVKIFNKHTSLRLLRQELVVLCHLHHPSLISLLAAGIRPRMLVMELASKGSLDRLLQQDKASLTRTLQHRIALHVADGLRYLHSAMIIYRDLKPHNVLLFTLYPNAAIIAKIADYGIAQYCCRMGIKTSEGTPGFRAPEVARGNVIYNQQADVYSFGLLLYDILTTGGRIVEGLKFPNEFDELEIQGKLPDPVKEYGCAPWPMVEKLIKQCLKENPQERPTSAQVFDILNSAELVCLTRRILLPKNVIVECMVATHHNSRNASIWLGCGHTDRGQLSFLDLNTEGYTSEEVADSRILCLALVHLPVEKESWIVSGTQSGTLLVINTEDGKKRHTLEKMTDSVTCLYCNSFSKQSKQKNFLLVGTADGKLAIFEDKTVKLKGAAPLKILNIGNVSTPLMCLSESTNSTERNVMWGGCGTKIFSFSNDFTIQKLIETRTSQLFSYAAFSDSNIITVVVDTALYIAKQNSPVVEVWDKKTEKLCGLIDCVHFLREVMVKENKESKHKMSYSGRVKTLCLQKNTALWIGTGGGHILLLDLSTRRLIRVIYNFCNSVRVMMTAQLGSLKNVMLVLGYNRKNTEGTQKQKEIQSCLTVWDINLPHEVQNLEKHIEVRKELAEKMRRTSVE
# Sequence of UniProt Q00535 (whole entry, looked up): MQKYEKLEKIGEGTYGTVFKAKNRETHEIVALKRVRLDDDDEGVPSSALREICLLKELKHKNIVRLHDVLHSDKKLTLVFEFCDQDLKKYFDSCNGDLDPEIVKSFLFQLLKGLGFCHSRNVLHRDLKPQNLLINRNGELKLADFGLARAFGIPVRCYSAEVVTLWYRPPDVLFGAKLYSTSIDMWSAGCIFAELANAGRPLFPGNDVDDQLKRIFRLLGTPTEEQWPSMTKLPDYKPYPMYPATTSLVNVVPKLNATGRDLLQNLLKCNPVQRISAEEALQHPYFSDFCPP

# Study 1 — concentration: 50 µM
# Target: Bromodomain-containing protein 4, BD1 (BRD4, Homo sapiens, UniProt O60885)
Compound,inhibition
CC1(COc2ccc3c(c2)ncn3-c2ccc3cccc(N4CCC(N)CC4)c3n2)COC1,10.9%
COc1ccc2[nH]c([S+]([O-])Cc3ncc(C)c(OC)c3C)nc2n1 (stereo not drawn),5.05%
O=S(=O)(c1cccc2cnccc12)N1CCCNCC1,-5.85% and -0.55%
S=C(NCc1ccc2c(c1)OCO2)N1CCN(c2ncnc3c2oc2ccccc23)CC1,21.2%
C#Cc1cccc(Nc2ncnc3cc(OC)c(OCCCCCCC(=O)NO)cc23)c1,37%
C[C@@H](Oc1cc(-c2cnn(C3CCNCC3)c2)cnc1N)c1c(Cl)ccc(F)c1Cl,71.1%
Cc1cc2c(F)c(Oc3ncnn4cc(OC[C@@H](C)O)c(C)c34)ccc2[nH]1,86.1%
CNC(=O)c1nn(C)c2c1C(C)(C)Cc1cnc(Nc3ccc(N4CCN(C)CC4)cc3)nc1-2,53.9%

# Study 2 — organism: Sarcocystis neurona; effect on: parasite growth; concentration: 10 µM; time: 96 h; notes: first screen; reference: untreated
Compound,log2 fold change
CC(=O)[C@H]1CC[C@H]2[C@@H]3CCC4=CC(=O)CC[C@]4(C)[C@H]3CC[C@]12C,-0.47
CC(C)C[C@H](NC(=O)[C@@H](O)[C@H](N)Cc1ccccc1)C(=O)O,-0.17
CNCC[C@@H](Oc1ccccc1C)c1ccccc1,-0.12
C[C@]12C[C@H](O)[C@H]3[C@@H](CCC4=CC(=O)CC[C@@]43C)[C@@H]1CC[C@@H]2C(=O)CO,0.03
CCCN(CCC)S(=O)(=O)c1ccc(C(=O)O)cc1,0.33
Cc1[nH]cnc1CN1CCc2c(c3ccccc3n2C)C1=O,0.14
CC[C@H](C)C(=O)O[C@H]1C[C@@H](C)C=C2C=C[C@H](C)[C@H](CC[C@@H]3C[C@@H](O)CC(=O)O3)[C@H]21,0.074
CN(C)CCOC(c1ccc(Cl)cc1)c1ccccn1 (stereo not drawn),-0.05
Cc1occc(=O)c1O,0.14
CC1COc2c(N3CCN(C)CC3)c(F)cc3c(=O)c(C(=O)O)cn1c23 (stereo not drawn),-0.32
C[C@H]1COc2c(C3(N)CC3)c(F)cc3c(=O)c(C(=O)O)cn1c23,-0.03

# Study 3 — effect on: cell-free assay; method: competition with immobilised ligand; concentration: 1 µM
# SMILES: CO[C@H]1CC[C@H](CNc2ccc(S(=O)(=O)NC(=O)c3ccc(N4CCN(CC5=C(c6ccc(Cl)cc6)CC(C)(C)CC5)CC4)cc3Oc3cnc4[nH]ccc4c3)cc2[N+](=O)[O-])CC1
target,remaining binding [%]
"Mitogen-activated protein kinase 6 (MAPK6, Homo sapiens, UniProt Q16659)",81
"Activin receptor type-2B (ACVR2B, Homo sapiens, UniProt Q13705)",95
"Insulin-like growth factor 1 receptor (IGF1R, Homo sapiens, UniProt P08069)",82
"Mitogen-activated protein kinase 3 (MAPK3, Homo sapiens, UniProt P27361)",80
"Serine/threonine-protein kinase 17B (STK17B, Homo sapiens, UniProt O94768)",91
"Tyrosine-protein kinase Fes/Fps (FES, Homo sapiens, UniProt P07332)",100
"Phosphatidylinositol 4,5-bisphosphate 3-kinase catalytic subunit beta isoform (PIK3CB, Homo sapiens, UniProt P42338)",100
"Serine/threonine-protein kinase B-raf (BRAF, Homo sapiens, UniProt P15056)",100
"Casein kinase I isoform gamma-1 (CSNK1G1, Homo sapiens, UniProt Q9HCP0)",100
"Death-associated protein kinase 1 (DAPK1, Homo sapiens, UniProt P53355)",73
"Leucine-rich repeat serine/threonine-protein kinase 2 (LRRK2, Homo sapiens, UniProt Q5S007, G2019S)",100
"Phosphatidylinositol 4,5-bisphosphate 3-kinase catalytic subunit alpha isoform (PIK3CA, Homo sapiens, UniProt P42336, H1047L)",90
"Ephrin type-B receptor 3 (EPHB3, Homo sapiens, UniProt P54753)",94
"Cyclin-dependent kinase 5 (CDK5, Homo sapiens, UniProt Q00535)",82
"Casein kinase II subunit alpha (CSNK2A1, Homo sapiens, UniProt P68400)",89

# Study 4 — effect on: enzyme activity; action: inhibitor; concentration: 10 µM
# Target: Calcium/calmodulin-dependent protein kinase type II subunit alpha (CAMK2A, Homo sapiens, UniProt Q9UQM7)
# Sequence of UniProt Q9UQM7 (whole entry, looked up): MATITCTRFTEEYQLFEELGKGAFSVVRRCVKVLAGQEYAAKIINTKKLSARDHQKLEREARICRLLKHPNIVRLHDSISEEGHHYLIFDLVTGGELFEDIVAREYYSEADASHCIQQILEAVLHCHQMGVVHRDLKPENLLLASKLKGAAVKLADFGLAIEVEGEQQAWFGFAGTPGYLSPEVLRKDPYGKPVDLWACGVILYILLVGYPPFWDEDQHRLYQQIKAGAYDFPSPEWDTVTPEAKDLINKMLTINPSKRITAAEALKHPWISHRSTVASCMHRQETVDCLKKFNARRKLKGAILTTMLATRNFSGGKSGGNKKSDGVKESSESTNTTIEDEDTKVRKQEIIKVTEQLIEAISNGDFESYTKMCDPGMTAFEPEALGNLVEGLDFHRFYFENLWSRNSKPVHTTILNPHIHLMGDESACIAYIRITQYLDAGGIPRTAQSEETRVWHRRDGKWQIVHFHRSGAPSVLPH
SMILES,inhibition
C[C@@H]1O[C@@H](O[C@H]2[C@H](Oc3c(-c4ccc(O)cc4)oc4cc(O)cc(O)c4c3=O)O[C@H](CO)[C@@H](O)[C@@H]2O)[C@H](O)[C@H](O)[C@H]1O,-0.3% and 0.01%
Cc1c(NC(=O)c2cccnc2)c(=O)n(-c2ccccc2)n1C,-8%
CCCCCCCC/C=C\CCCCCCCCCCCC(=O)O,-28%
CC(C)=CCC[C@](C)(O[C@@H]1O[C@H](CO[C@@H]2O[C@@H](CO)[C@H](O)[C@H]2O)[C@@H](O)[C@H](O)[C@H]1O)[C@H]1CC[C@]2(C)[C@@H]1[C@H](O)C[C@@H]1[C@@]3(C)CC[C@H](O[C@@H]4O[C@H](CO)[C@@H](O)[C@H](O)[C@H]4O)C(C)(C)[C@@H]3CC[C@]12C,-6%
C[C@@H]1C(=O)O[C@H]2[C@@H](O)[C@@]34[C@H]5C[C@@H](C(C)(C)C)[C@]36[C@@H](OC(=O)[C@@H]6O)O[C@@]4(C(=O)O5)[C@@]12O,-18%
O=C(O)CNC(=O)c1c(O)cc(CCc2ccccc2)n2ncnc12,-3%
Cc1ccc2c(Cl)cc(Cl)c(O)c2n1,-8%
COC(=O)C1=C(C)NC(C)=C(C(=O)OCCN(C)Cc2ccccc2)C1c1cccc([N+](=O)[O-])c1 (stereo not drawn),0%
CCCCCC(C)O (stereo not drawn),22%
O=c1ccc2ccc(O[C@@H]3O[C@H](CO)[C@@H](O)[C@H](O)[C@H]3O)cc2o1,4%
CC1(C)C=CC(=O)C1,-1%

# A few entries again (study 3):
target,remaining binding [%]
"Activin receptor type-2B (ACVR2B, Homo sapiens, UniProt Q13705)",95
"Insulin-like growth factor 1 receptor (IGF1R, Homo sapiens, UniProt P08069)",82
"Mitogen-activated protein kinase 3 (MAPK3, Homo sapiens, UniProt P27361)",80
"Serine/threonine-protein kinase 17B (STK17B, Homo sapiens, UniProt O94768)",91
"Tyrosine-protein kinase Fes/Fps (FES, Homo sapiens, UniProt P07332)",100
"Phosphatidylinositol 4,5-bisphosphate 3-kinase catalytic subunit beta isoform (PIK3CB, Homo sapiens, UniProt P42338)",100
"Serine/threonine-protein kinase B-raf (BRAF, Homo sapiens, UniProt P15056)",100
